Experimental data gathered from unrelated publications.
Lines come from different studies, so protocols differ. Several values in a cell are separate wells, animals, samples, runs or records. ± gives the spread as reported.
CASP7: Caspase-7 (CASP7, Homo sapiens, UniProt P55210)
UniProt P55210, sequence (whole entry, looked up): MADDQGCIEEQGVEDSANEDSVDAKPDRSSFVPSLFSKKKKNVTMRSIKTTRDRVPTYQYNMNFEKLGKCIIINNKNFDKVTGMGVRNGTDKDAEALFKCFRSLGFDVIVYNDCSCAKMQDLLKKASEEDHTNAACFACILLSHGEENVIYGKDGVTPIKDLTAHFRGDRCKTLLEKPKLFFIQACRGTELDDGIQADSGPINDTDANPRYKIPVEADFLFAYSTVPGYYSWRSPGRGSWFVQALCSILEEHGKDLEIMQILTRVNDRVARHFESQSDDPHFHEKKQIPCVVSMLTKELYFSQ
Gria2: Glutamate receptor 2 (Gria2, Rattus norvegicus, UniProt P19491)
UniProt P30531, sequence (whole entry, looked up): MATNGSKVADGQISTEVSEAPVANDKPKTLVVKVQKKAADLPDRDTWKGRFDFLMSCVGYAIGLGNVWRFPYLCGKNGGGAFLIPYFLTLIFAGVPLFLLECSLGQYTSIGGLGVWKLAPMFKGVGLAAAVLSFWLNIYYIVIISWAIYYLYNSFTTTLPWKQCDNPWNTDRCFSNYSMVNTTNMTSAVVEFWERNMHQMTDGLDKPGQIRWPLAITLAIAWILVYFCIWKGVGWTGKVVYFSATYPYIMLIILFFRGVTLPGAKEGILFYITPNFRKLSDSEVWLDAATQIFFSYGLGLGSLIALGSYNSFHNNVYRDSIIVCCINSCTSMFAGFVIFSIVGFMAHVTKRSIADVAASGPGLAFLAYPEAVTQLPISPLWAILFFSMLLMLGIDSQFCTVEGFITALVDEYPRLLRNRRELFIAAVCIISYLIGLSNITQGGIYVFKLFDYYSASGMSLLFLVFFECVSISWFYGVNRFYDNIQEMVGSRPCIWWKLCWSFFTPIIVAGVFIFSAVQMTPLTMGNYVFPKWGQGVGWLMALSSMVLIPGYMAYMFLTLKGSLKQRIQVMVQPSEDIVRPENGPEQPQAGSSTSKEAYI
UniProt P19491, sequence (whole entry, looked up): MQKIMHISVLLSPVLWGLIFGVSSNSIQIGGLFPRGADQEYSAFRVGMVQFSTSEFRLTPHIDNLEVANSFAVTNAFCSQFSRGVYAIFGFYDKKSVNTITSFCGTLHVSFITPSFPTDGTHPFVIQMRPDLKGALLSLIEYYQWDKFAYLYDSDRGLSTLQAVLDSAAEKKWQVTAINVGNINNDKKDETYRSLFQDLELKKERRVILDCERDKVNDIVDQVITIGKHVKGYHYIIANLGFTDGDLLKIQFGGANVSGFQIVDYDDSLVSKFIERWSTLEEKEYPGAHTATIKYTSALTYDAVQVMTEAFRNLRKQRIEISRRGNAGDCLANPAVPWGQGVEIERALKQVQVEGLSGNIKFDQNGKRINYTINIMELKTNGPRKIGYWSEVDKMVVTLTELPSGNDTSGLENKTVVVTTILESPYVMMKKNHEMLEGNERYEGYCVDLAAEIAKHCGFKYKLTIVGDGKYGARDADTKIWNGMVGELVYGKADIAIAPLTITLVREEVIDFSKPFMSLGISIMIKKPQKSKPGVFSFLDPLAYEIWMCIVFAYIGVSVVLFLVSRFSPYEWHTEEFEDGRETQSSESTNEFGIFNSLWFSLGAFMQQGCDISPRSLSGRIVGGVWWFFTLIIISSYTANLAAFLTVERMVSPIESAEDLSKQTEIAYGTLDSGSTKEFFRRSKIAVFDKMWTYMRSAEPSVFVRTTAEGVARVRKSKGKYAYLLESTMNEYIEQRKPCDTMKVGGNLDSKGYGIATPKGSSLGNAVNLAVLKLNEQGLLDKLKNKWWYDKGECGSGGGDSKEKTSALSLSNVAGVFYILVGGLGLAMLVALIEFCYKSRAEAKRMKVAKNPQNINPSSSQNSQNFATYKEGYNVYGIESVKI
UniProt P33240, sequence (whole entry, looked up): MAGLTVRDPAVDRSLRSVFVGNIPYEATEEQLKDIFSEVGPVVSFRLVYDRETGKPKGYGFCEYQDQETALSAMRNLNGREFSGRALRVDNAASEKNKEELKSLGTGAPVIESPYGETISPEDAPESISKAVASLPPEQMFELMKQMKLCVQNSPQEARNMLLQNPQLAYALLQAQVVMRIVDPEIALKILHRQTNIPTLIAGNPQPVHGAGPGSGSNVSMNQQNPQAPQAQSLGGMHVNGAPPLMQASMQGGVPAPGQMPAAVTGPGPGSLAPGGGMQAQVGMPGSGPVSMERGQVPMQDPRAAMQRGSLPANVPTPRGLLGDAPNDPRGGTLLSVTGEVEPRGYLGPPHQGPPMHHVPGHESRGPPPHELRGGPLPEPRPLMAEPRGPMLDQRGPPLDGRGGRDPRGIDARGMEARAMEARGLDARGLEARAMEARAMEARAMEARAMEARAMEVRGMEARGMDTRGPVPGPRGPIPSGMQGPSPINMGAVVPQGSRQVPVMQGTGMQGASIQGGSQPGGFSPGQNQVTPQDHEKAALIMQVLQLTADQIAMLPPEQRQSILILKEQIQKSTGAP
UniProt Q9UKP6, sequence (whole entry, unmodified, looked up): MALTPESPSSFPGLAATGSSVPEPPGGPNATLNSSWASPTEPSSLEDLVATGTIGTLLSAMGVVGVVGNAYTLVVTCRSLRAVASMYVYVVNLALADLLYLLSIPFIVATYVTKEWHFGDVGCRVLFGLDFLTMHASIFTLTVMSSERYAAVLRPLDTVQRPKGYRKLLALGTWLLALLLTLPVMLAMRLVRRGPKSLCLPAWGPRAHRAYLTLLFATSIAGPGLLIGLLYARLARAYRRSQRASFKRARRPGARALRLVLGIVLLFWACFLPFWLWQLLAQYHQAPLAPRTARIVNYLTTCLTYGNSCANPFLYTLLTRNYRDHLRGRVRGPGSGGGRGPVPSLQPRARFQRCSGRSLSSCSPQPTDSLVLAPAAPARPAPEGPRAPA
UniProt O00411, sequence (whole entry, looked up): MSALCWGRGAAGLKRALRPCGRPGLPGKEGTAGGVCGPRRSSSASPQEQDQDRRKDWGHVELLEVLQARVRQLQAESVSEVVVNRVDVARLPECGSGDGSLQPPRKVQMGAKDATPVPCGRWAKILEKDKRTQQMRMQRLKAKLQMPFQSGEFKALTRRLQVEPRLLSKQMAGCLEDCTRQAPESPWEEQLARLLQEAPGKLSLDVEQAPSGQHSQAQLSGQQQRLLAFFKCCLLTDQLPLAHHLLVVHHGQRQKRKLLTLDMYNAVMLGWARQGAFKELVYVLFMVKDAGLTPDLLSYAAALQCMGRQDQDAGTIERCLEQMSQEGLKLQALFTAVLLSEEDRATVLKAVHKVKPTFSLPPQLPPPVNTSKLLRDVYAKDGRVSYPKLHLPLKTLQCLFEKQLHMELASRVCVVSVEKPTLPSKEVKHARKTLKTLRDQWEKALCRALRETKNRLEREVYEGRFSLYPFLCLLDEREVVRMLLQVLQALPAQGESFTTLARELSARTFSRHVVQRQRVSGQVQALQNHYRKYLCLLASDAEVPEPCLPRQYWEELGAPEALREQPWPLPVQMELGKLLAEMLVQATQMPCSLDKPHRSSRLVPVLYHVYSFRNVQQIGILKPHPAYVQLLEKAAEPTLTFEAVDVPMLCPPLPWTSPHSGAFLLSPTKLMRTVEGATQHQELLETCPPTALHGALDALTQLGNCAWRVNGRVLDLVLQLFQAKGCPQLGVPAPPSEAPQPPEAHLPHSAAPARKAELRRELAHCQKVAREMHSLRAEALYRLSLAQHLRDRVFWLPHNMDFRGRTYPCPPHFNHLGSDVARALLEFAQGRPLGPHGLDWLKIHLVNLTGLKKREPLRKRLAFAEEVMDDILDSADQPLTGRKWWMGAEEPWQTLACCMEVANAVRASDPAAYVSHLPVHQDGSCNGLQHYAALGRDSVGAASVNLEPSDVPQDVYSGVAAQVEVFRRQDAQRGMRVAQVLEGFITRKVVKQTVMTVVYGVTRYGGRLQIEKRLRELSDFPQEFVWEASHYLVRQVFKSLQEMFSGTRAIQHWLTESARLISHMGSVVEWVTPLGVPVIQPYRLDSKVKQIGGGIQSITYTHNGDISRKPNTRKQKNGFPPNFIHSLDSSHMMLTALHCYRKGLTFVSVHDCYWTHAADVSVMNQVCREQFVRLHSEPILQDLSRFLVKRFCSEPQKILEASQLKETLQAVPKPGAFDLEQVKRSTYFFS
UniProt Q9NS91, sequence (whole entry, looked up): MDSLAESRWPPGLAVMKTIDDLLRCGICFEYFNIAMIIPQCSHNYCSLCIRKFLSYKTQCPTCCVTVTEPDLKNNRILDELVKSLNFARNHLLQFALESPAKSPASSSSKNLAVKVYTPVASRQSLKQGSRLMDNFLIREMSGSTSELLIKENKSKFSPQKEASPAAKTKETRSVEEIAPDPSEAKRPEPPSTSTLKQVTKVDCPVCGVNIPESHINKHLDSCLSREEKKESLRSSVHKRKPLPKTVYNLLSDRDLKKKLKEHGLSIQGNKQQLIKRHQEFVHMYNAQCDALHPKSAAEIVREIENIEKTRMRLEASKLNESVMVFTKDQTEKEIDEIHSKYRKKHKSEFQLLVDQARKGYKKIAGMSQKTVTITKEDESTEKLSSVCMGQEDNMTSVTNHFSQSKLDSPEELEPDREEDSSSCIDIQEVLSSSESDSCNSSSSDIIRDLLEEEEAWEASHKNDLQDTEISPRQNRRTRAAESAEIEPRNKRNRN
UniProt P06748, sequence (whole entry, looked up): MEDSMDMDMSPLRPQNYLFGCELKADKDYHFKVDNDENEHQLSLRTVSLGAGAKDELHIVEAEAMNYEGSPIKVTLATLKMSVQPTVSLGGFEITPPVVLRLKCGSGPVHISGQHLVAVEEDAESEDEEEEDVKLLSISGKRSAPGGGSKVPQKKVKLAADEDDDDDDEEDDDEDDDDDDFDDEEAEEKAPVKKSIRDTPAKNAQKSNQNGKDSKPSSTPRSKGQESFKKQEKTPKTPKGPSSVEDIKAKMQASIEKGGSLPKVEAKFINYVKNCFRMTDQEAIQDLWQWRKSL

Structure (SMILES) = CC(C)[C@H](NC(=O)[C@@H]1CSSC(C)(C)[C@H](NC(=O)[C@@H](N)CC(=O)O)C(=O)N[C@@H](Cc2ccccc2)C(=O)N[C@@H](Cc2c[nH]c3ccccc23)C(=O)N[C@@H](CCCCN)C(=O)N[C@@H](Cc2ccc(O)cc2)C(=O)N1)C(=O)O; target = UTS2R (Homo sapiens, UniProt Q9UKP6, F274A); test = IP1 accumulation, agonist, IP1 HTRF; system = HEK293T; how to read = reference: wild-type receptor; endpoint = span; result = 62 ± 11%
Structure (SMILES) = Nc1ccn([C@@H]2O[C@H](COP(=O)(O)OP(=O)(O)OP(=O)(O)O)[C@@H](O)[C@H]2O)c(=O)n1; target = POLRMT (Homo sapiens, UniProt O00411); test = single-nucleotide incorporation, substrate; endpoint = Vmax; result = 0.41 product fraction
Structure (SMILES) = CC(=O)N[C@@H](CC(C)C)C(=O)N[C@@H](CCC(=O)O)C(=O)N[C@H](C(=O)N[C@@H](CC(=O)O)C(=O)COC(=O)c1c(C)cccc1C)[C@@H](C)OCc1ccccc1; target = CASP7; test = enzyme activity, inhibitor; endpoint = kinact/KI; result = 51200 M⁻¹ s⁻¹
Structure (SMILES) = O=C(O)Cc1cc2c(cc1C(=O)c1ccccc1)OCO2; target = Gria2; test = glutamate-evoked current, whole-cell patch clamp; system = HEK-293T; setting = concentration not given, weighted tau, 500 ms pulse, together with: glutamate; endpoint = desensitization time constant; result = 2.5 ± 0.1 ms
Structure (SMILES) = C#CC[C@H](NC(=O)c1ccc(C(=O)c2ccccc2)cc1)C(=O)NCCCCCC(=O)N[C@@H](CCCCNC(=O)CSCCNC(=O)CCNC(=O)[C@H](O)C(C)(C)COP(=O)(O)OP(=O)(O)OC[C@H]1O[C@@H](n2cnc3c(N)ncnc32)[C@H](O)[C@@H]1OP(=O)(O)O)C(N)=O; target = MTHFD1 (Homo sapiens, UniProt P11586); test = affinity enrichment LC-MS/MS; system = HEK293 cell extract, PCAF transfected; how to read = reference: 1 over empty vector; endpoint = enrichment ratio; result = 2.2
Structure (SMILES) = CC(=O)N[C@@H](Cc1ccccc1)C(=O)N[C@@H](CC(=O)O)C(=O)N[C@@H](CCC(=O)O)C(=O)N1CCC[C@H]1C(=O)N[C@@H](CC(=O)O)C(=O)COC(=O)c1c(C)cccc1C; target = CASP7; test = enzyme activity, inhibitor; endpoint = kinact/KI; result = 644000 M⁻¹ s⁻¹
Structure (SMILES) = O=C(Nc1ccc(C(=O)Nc2ccc3c(O)cc(S(=O)(=O)O)cc3c2)cc1)c1ccccc1; target = Trex1 (Mus musculus, UniProt Q91XB0); test = ssDNA binding, inhibitor, fluorescence anisotropy; setting = together with: 5 nM FAM-labelled ssDNA, 20 nM enzyme; endpoint = Hill slope; result = 1.91 ± 0.132
Structure (SMILES) = CCCCCC(O)/C=C/C=O (centres unmarked); target = Cleavage stimulation factor subunit 2 (CSTF2, Homo sapiens, UniProt P33240); test = competitive isoTOP-ABPP, measured: CSTF2 cysteine peptide; system = Ramos soluble proteome; setting = 100 µM, together with: iodoacetamide probe; how to read = reference: DMSO over compound-treated, higher = stronger cysteine blockade; endpoint = isoTOP-ABPP competition ratio; result = 1.7
Structure (SMILES) = COc1ccc(C(OCCN2CCCC(C(=O)O)C2)(c2ccc(OC)cc2)c2ccc(OC)cc2)cc1 (centres unmarked); target = SLC6A1 (Homo sapiens, UniProt P30531); test = GABA transport, inhibitor, radioligand uptake; system = HEK293F transfected; setting = 4 µM, 15 min pre, 45 min uptake, room temperature, together with: [3H]-GABA 30 nM, GABA 25 µM; how to read = higher = more uptake; endpoint = [3H]-GABA uptake; result = 3950 a.u. and 1200 a.u. and 1300 a.u. and 1020 a.u. and 1400 a.u. and 3440 a.u. and 911 a.u. and 917 a.u.
Structure (SMILES) = N=C(N)NCCC[C@H](NC(=O)[C@@H]1CCCN1C(=O)[C@H](CCCNC(=N)N)NC(=O)[C@@H]1CCCN1C(=O)[C@H](CCCNC(=N)N)NC(=O)[C@@H]1CCCN1C(=O)[C@H](CCCNC(=N)N)NC(=O)[C@@H]1CCCN1C(=O)[C@H](CCCNC(=N)N)NC(=O)[C@@H]1CCCN1C(=O)[C@H](CCCNC(=N)N)NC(=O)[C@@H]1CCCN1C(=O)[C@H](CCCNC(=N)N)NC(=O)[C@@H]1CCCN1C(=O)[C@H](CCCNC(=N)N)NC(=O)[C@@H]1CCCN1C(=O)[C@H](CCCNC(=N)N)NC(=O)[C@@H]1CCCN1C(=O)[C@H](CCCNC(=N)N)NC(=O)[C@@H]1CCCN1C(=O)[C@H](CCCNC(=N)N)NC(=O)[C@@H]1CCCN1C(=O)[C@H](CCCNC(=N)N)NC(=O)[C@@H]1CCCN1C(=O)[C@H](CCCNC(=N)N)NC(=O)[C@@H]1CCCN1C(=O)[C@H](CCCNC(=N)N)NC(=O)[C@@H]1CCCN1C(=O)[C@H](CCCNC(=N)N)NC(=O)[C@@H]1CCCN1C(=O)[C@H](CCCNC(=N)N)NC(=O)[C@@H]1CCCN1C(=O)[C@H](CCCNC(=N)N)NC(=O)[C@@H]1CCCN1C(=O)[C@H](CCCNC(=N)N)NC(=O)[C@@H]1CCCN1C(=O)[C@H](CCCNC(=N)N)NC(=O)[C@@H]1CCCN1C(=O)[C@H](CCCNC(=N)N)NC(=O)[C@@H]1CCCN1C(=O)[C@H](CCCNC(=N)N)NC(=O)[C@@H]1CCCN1C(=O)[C@H](CCCNC(=N)N)NC(=O)[C@@H]1CCCN1C(=O)[C@H](CCCNC(=N)N)NC(=O)[C@@H]1CCCN1C(=O)[C@H](Cc1ccc(O)cc1)NC(=O)[C@H](CO)NC(=O)CN)C(=O)O; target = Nucleophosmin (NPM1, Homo sapiens, UniProt P06748); test = SANS Guinier analysis; setting = 0.7 molar excess over NPM1, 25 °C; endpoint = radius of gyration; result = 54.3 ± 3.85 Å
Structure (SMILES) = CC1CCN(c2ccc(-c3n[nH]c(=O)c4cccnc34)cc2)CC1; target = human kinase panel; test = binding, KINOMEscan; setting = 10000 nM, %Ctrl below 10; endpoint = number of kinases hit; result = 1
Structure (SMILES) = NC(=O)c1cccc(NC(=O)c2cc(-c3ccccc3)nn2-c2ccccc2)c1; target = Genome polyprotein, NS2B-NS3 protease (dengue virus type 2, UniProt P29990); test = reporter gene; system = HeLa; setting = 12.5 µM; endpoint = inhibition; result = 45%
Structure (SMILES) = CC[C@H](C)[C@@H]1NC(=O)[C@H](Cc2ccc(O)cc2)NC(=O)CSC[C@@H](C(N)=O)NC(=O)[C@H](CC(N)=O)NC(=O)[C@H](Cc2c[nH]cn2)NC(=O)[C@H](Cc2ccc(O)cc2)NC(=O)[C@H](CC(=O)O)NC(=O)[C@H](Cc2ccc(O)cc2)NC(=O)[C@H](CC(C)C)NC(=O)[C@H](CCCNC(=N)N)NC1=O; target = E3 ubiquitin-protein ligase RAD18, with RAD6 (Homo sapiens, UniProt Q9NS91); test = co-immunoprecipitation; system = H1299 expressing HA-RAD18, cell lysate; setting = concentration not given; endpoint = RAD18-RAD6 interaction; result = no effect
Structure (SMILES) = COC(=O)Cc1cc2c(cc1C(=O)c1ccccc1Br)OCO2; target = Gria2; test = glutamate-evoked current, whole-cell patch clamp; system = HEK-293T; setting = concentration not given, pH 7.4, holding potential -60 mV, together with: 10 mM glutamate; endpoint = current amplitude; result = 591 ± 42 pA

Excerpt of the above:
Structure (SMILES) = O=C(Nc1ccc(C(=O)Nc2ccc3c(O)cc(S(=O)(=O)O)cc3c2)cc1)c1ccccc1; target = Trex1 (Mus musculus, UniProt Q91XB0); test = ssDNA binding, inhibitor, fluorescence anisotropy; setting = together with: 5 nM FAM-labelled ssDNA, 20 nM enzyme; endpoint = Hill slope; result = 1.91 ± 0.132
